Experimental data collected from several papers.
Several values in a cell are separate wells, animals, samples, runs or records. ± marks the error that the study gave.
Chain of UniProt P06276 (whole entry, looked up): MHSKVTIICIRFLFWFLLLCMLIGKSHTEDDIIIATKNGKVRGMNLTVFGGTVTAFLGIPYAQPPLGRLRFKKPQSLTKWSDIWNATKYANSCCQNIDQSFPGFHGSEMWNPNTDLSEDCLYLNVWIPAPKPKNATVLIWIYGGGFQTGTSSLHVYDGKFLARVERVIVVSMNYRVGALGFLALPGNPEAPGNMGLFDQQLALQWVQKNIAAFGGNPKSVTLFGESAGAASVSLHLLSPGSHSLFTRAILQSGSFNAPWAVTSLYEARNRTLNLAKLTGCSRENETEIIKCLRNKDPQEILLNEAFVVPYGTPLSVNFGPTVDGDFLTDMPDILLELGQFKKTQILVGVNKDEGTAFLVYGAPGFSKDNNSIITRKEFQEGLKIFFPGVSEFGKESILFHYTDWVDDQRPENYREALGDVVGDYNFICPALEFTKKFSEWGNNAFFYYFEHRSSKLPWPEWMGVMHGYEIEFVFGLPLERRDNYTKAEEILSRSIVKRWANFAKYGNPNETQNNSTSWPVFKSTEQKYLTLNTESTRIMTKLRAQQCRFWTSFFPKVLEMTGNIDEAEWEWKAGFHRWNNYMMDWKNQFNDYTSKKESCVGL

COc1cc2c(OCCCN3CCOCC3)c3c(c(-c4ccc5c(c4)OCO5)c2cc1OC)C(=O)OC3  CC50 (HeLa; 24 h): 36.6 ± 18.8 µM
O=c1ccc2ccccc2o1  chance response (NHEK; cell cycle arrest; concentration not given, 1 h): 1.05%
CC[C@H](C)[C@H](NC(=O)[C@H](CCC(=O)O)NC(=O)[C@H](Cc1ccccc1)NC(=O)[C@H](CO)NC(=O)[C@H](CCCCN)NC(=O)[C@H](CCCCN)NC(=O)[C@H](CC(C)C)NC(=O)[C@H](CCCNC(=N)N)NC(=O)[C@H](CC(C)C)NC(=O)[C@@H]1CCCN1C(=O)[C@@H]1CCCN1C(=O)[C@@H](N)Cc1c[nH]cn1)C(=O)N[C@@H](CC(C)C)C(=O)N[C@H](C(=O)N[C@@H](CCCNC(=N)N)C(=O)N[C@@H](CCCCN)C(=O)N1CCC[C@H]1C(=O)N[C@@H](CCSC)C(=O)N[C@@H](CO)C(=O)N[C@@H](CO)C(=O)N[C@@H](CCCCN)C(=O)N1CCC[C@H]1C(=O)N[C@@H](CCCCN)C(=O)N1CCC[C@H]1C(=O)N1CCC[C@H]1C(=O)N1CCC[C@H]1C(=O)N[C@@H](CCCNC(=N)N)C(=O)N[C@@H](CCCCN)C(=O)N[C@@H](Cc1ccc(O)cc1)C(=O)N[C@@H](Cc1ccccc1)C(=O)N[C@@H](CCCCN)C(=O)N[C@@H](CO)C(=O)O)C(C)C  CC50 (PMA-differentiated THP-1; cell viability, MTT; 24 h): 59.4 µM
CC(c1ccccc1)(c1ccc(O)cc1)c1ccc(O)cc1  early apoptotic cells (HepG2 spheroids, dissociated; annexin V-FITC/PI flow cytometry; 0.10 µM, 96 h): 5.85 ± 2.72%
O=c1c(O)c(-c2ccc(O)c(O)c2)oc2cc(O)cc(O)c12  IC50 (uninduced SH-SY5Y Aβ-GFP cells; cytotoxicity, MTT; 24 h): 99 µM
Cc1cc(NC(=O)c2cc3c(=O)n4cccc(C)c4nc3n2C)ccc1Br  viability (Vero; MTT; 1.6 µM, 24 (unit not given)): 83.2%
CCC1=C[C@@H]2CN3CCc4c([nH]c5ccccc45)[C@@](C(=O)OC)(C2)[C@@H]13  IC50 (Cholinesterase (BCHE, Homo sapiens, UniProt P06276); inhibitor; with Triton): 3.22 ± 1.44 µM
CC(C)(c1ccc(O)cc1)c1ccc(O)cc1  late apoptotic cells (HepG2 spheroids; annexin V-FITC/PI flow cytometry; 0.10 µM, 96 h): 20 ± 11.6%
COc1cc2c(Oc3ccc4[nH]c(C)cc4c3F)ccnc2cc1OCC1(N)CC1  Nausea incidence (paediatric recurrent refractory sarcoma; 12 mg): 9.1%
CC[C@H](C)[C@H](NC(=O)[C@H](CCCNC(=N)N)NC(=O)[C@H](Cc1c[nH]c2ccccc12)NC(=O)[C@H](CCCNC(=N)N)NC(=O)[C@H](Cc1c[nH]c2ccccc12)NC(=O)[C@H](Cc1c[nH]c2ccccc12)NC(=O)[C@H](Cc1c[nH]c2ccccc12)NC(=O)[C@H](CCCNC(=N)N)NC(=O)[C@H](Cc1c[nH]c2ccccc12)NC(=O)[C@@H](N)CCCNC(=N)N)C(N)=O  LC50 (PK-15): 180 µM
Oc1ccc(C(c2ccc(O)cc2)(C(F)(F)F)C(F)(F)F)cc1  necrotic cells (HepG2 spheroids; annexin V-FITC/PI flow cytometry; 0.1 µM, 24 h): 8.07 ± 6.39%
CO[C@H]1C[C@@H]2CC[C@@H](C)[C@@](O)(O2)C(=O)C(=O)N2CCCC[C@H]2C(=O)O[C@H]([C@H](C)C[C@@H]2CC[C@@H](OC(=O)NCCOCCOCCOCCOCCOCCOCCOCCOCCC(=O)N3CCc4cc(Cn5nc(-c6ccc7oc(N)nc7c6)c6c(N)ncnc65)ccc4C3)[C@H](OC)C2)C[C@@H](O)[C@H](C)/C=C(\C)[C@@H](O)[C@@H](OC)C(=O)[C@H](C)C[C@H](C)/C=C/C=C/C=C/1C  AE leading to dose interruption (patients with advanced solid tumours; intravenous, 12 mg weekly, any grade): 58.3%
CNCCC=C1c2ccccc2CCc2ccccc21  IC50 (Plasmodium falciparum; Dd2): 3.98 µM
Cc1nn(-c2ccc(Cl)cc2)c2c1C(c1ccc(Cl)cc1Cl)C(C#N)=C(N)O2 (centres unmarked)  IC50 (Vero; cytotoxicity, MTT): 34.8 µM
Cc1cc(C(C)(C)c2ccc(O)c(C)c2)ccc1O  viable cells (HepG2 spheroids, dissociated; annexin V-FITC/PI flow cytometry; 10 µM, 24 h): 69 ± 8.66%
NCC(O)C1CCCCCCC1 (centres unmarked)  IC50 (Plasmodium falciparum; Dd2): 10 µM
CC(C)C[C@H](NC(=O)[C@H](C)NC(=O)[C@@H](NC(=O)[C@H](CCCNC(=N)N)NC(=O)[C@H](CC(C)C)NC(=O)[C@H](Cc1c[nH]c2ccccc12)NC(=O)[C@@H]1CCCN1C(=O)[C@@H](N)CCCCN)C(C)C)C(=O)N[C@@H](CS)C(=O)N1CCC[C@H]1C(=O)NCC(=O)O  viability (Vero; WST-1; 256 µM, 24 h): 124% and 120% and 117%
